# Results of several laboratories.
# Compare with care: the assays were run in different laboratories. ± gives the spread as reported.
Compound,setting,endpoint,result
CCCCSc1nnc(-c2ccc(N)cc2)o1,half IC50,DPPH radical scavenging,35.2%
N#C/C(=C\c1cn(-c2ccccc2)nc1-c1cccc(Br)c1)c1nc2ccccc2[nH]1,"100 µg/mL, 45 min",DPPH radical scavenging,50.9 ± 1.34%
Cc1ncc([N+](=O)[O-])n1CCOCc1nnc(SCC(=O)c2ccc(F)cc2)o1,"100 µg/mL, 45 min",DPPH scavenging,67.21 ± 0.29%
CCCCCCCCCCCCCCc1sc(NC(=O)CN2CCC(O)CC2)nc1-c1ccccc1,"0.1 mM, 20 min",DPPH radical scavenging,15.6%
N#C/C(=C\c1cn(-c2ccccc2)nc1-c1ccc(F)cc1)c1nc2ccccc2[nH]1,"100 µg/mL, 45 min",DPPH radical scavenging,54.2 ± 1.27%
O=C(CN1CCC(O)CC1)Nc1nccs1,"0.1 mM, 20 min",DPPH radical scavenging,25.4%
Cc1ncc([N+](=O)[O-])n1CCOCc1nnc(SCC(=O)c2ccc(Cl)cc2)o1,"100 µg/mL, 45 min",DPPH scavenging,38.1 ± 1.72%
CCCCCCCCCCCCCCc1sc(NC(=O)CCN2CCC(O)CC2)nc1-c1ccccc1,"0.1 mM, 1 h",DPPH radical scavenging,17.7%
CC1OC(OC2C(c3c(O)cc(O)c4c(=O)cc(-c5ccc(O)cc5)oc34)OC(CO)C(O)C2O)C(O)C(O)C1O (stereo not drawn),,"DPPH scavenging, TEAC",169 ± 1.8 µM TE/mM

# For quick reference, copied from above:
Compound,setting,endpoint,result
CCCCCCCCCCCCCCc1sc(NC(=O)CCN2CCC(O)CC2)nc1-c1ccccc1,"0.1 mM, 1 h",DPPH radical scavenging,17.7%
